# Measured values of several laboratories.
# A part holds a random share of what one study measured. Changes are numbered by the printed parent chain.

# Series 1
# Molecule: PhoQ, residues 284 288 289 292 302 303 GANMMA
# Method: Sort-seq
# Item: YFP reporter
# Medium: E. coli
# Setting: PhoQ-PhoP variant library
# With: 10 µM Mg2+
# Relative to: high Mg2+ state
# Reading: higher = stronger signaling
target,fold induction
"PhoP, residues 12 14 15 18 19 LFHKL (Escherichia coli, UniProt P23836)",8.49
"PhoP, residues 12 14 15 18 19 QQAYL (Escherichia coli, UniProt P23836)",11.1
"PhoP, residues 12 14 15 18 19 GMGLL (Escherichia coli, UniProt P23836)",1.57

# Series 2
# Target: Sal-like protein 4, full length isoform A (SALL4, Homo sapiens, UniProt Q9UJQ4, residues 1-1053)
# UniProt Q9UJQ4, sequence (whole entry, looked up): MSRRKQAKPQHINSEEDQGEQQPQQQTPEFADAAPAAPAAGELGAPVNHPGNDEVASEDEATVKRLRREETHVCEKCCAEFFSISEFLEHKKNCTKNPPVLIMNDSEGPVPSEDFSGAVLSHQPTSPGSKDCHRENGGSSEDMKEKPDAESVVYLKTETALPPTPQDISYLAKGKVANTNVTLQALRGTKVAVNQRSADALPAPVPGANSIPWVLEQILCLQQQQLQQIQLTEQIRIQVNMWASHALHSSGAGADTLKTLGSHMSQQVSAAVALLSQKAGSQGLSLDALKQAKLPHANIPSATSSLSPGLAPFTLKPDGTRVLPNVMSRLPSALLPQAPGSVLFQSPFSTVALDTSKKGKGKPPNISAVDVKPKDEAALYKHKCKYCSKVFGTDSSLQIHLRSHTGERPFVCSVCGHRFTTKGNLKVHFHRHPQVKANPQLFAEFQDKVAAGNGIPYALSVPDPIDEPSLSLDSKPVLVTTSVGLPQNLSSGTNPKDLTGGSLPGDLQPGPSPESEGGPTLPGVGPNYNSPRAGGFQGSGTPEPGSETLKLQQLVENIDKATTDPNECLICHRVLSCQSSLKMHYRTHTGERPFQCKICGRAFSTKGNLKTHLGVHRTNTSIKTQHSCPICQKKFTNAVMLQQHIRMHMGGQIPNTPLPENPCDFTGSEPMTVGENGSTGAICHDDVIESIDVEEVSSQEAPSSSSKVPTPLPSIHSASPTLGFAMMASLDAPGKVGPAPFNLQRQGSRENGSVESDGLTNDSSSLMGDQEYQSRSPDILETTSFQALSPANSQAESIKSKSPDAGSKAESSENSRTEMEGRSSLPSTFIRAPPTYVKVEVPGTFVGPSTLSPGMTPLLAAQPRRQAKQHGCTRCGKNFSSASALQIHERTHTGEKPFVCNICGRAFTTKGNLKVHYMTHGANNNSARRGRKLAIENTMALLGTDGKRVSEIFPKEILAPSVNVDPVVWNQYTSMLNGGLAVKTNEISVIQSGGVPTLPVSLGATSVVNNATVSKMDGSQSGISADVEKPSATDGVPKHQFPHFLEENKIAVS
# Method: universal PBM
# Form: double-stranded DNA, one strand shown
# Medium: in vitro
# Concentration: 600 nM
# Setting: 8-mer, flanks averaged, mean of replicates
# Reading: higher = stronger binding
Strand,E-score
AAGTACTG,0.0643
CCGTGAAC,-0.166
ACAAGTCA,0.0367
CTCGGAAC,-0.259
CAGAGATG,0.118
ATCCTCAG,0.00245
CCCGAGTC,-0.159
CTGATCTA,0.0153
CGTCGAAC,-0.192
CGATACGA,0.0387
GATTCAGA,0.0873
AAATGGAA,0.195
GCGTGTTA,0.0906
ATCGATGG,0.109
CATGTGCG,-0.0154
ATGCAATG,0.0742
ATGCGTCA,0.0622
CTCACTCC,-0.139
ACTCAGGG,-0.233
GAAGCAGC,-0.189
AACCCCCG,-0.271
ACATTGTA,0.172
GCAGCTGC,-0.126
GCTAGCCC,-0.171
CCCCGCGA,-0.265

# Series 3
# Target: CREB3L1, bZIP domain (human)
# Method: DHFR protein complementation
# Medium: yeast
# Setting: single substitutions, most at no-binding floor
# Relative to: wild-type JUN-FOS pair
# Reading: higher = stronger binding
# Parent: JUN, bZIP domain (human); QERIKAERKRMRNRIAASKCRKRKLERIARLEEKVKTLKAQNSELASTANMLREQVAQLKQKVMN; partner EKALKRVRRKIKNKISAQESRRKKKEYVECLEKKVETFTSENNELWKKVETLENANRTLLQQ
Variant,binding fitness [natural log]
A29P,-1.48
A29M,-1.38
A49L,-1.43
Q55V,-1.49
S43W,-1.48
K34G,-1.4
S43A,-1.24
S43M,-1.34
E32S,-1.47
L45H,-1.54
A49M,-1.43
Q55K,-1.52
R30P,-1.49
A49W,-1.4
I28T,-1.48
K34E,-1.58
A57R,-1.4
A49P,-1.41
A29Q,-1.49

# Series 4
# Target: RNA binding protein fox-1 homolog 2, RRM domain, GST-SBP tag (RBFOX2, Homo sapiens, UniProt O43251-10, residues 100-194)
# Method: RNA Bind-n-Seq
# Form: RNA
# Medium: in vitro
# Concentration: 365 nM
# Setting: natural RNA segment, single round, ends assumed
# Relative to: no-protein control
# Reading: higher = stronger binding
# Shared flanks, not repeated: GGGAGUUCUACAGUCCGACGAUC … UGGAAUUCUCGGGUGCCAA
# Construct (chain): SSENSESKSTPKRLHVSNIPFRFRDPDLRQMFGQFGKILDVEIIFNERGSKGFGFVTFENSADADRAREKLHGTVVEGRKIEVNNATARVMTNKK
Strand,RBNS enrichment (R)
UUCCUUUUAGUAUGUUUCAAGUGCAGUAAUCGUACUUGUCUAUCCAGUUUCUAUGUAUGAUACGAGUUGCUUACACGAUGCAUGGCUAACUUGUUAAUUUAGUUUUCUCC,9.65
CUUACAGAAGAAGUGGCCCUCCAUAGACAUGUGUAGCAUCAAAACACAAAGGCCCACACUUCCUGACGGAUGCCAGCUUGGGCACUGCUGUCUACUGACCCCAACCCUUG,1.05
AAGGUGUAAGGUUUCCUAAGGGAUUACAACACAGUGGUUUCCUGGUCUCUCUCCCUGUCAUCAAUCAGGGUAGUAACUUGACUUAAGAAUACCACUUUUUAGAAAAAUUA,0.243
AGUAGGGAUUGACUACUAGACUGUGUGUUUUAUCAAAGUGUGUAAGAAUAAAAACUCACUUGCACGAAUUGAAACGUAAAGAAAUGACACUUGUGAACGUGUGAACGUUA,0.631
GCUUGUUUGAUCUGUUUUCUGUAACUUUUGCUAAAUACUUUAUACAUUUUUCAUGUUAAAGAGCCGUGUCUCCCGCCAGCACUCCUCACCCCGGUAUGAAUGUGUUUCCU,5.03
UCUCUCAUUGCCGCUGCCACUAUCACCUGUCUCUCUGCCAGCUGAUGUGCCCUGUUGCCCCCCACCCCAUCCCGCACAGAACCAUCCCUGCAUUCCACAGGGGACUCGGG,0.458
AGCUGCAUGGGCCUCCACACCACCUUGGGAACCCCAUGGCACUGCCCUUCAGGGAAGCCGACCAGCCCAUGGAGACCGAGCCCAGGCACCCUUCGGACCCGCUGCCCCUG,0.391
GAGACUCCAAUGUUUACUUUCUCCAGUCCUAGCUCUGCCAUAUAAACACUGUCUCAUGUUGUGCUUCUUAAACGACAAAGAACAUAGUGACUUUUGGGGAUAGAUCUGUC,0.482
GACAGGGAGCUAGAGCCAAGCCCUAGGCUUGAGAGACACCUGCAUCUAUAAUCCCCGCCAAGGAUGCCCACUCACCUCUCUCAUCUGAUCCUCACUCUUUGUGGAAGGGA,0.329
AGGAAAAUGUACUGUUGUGUGUUUCAUUUGUGUGAUUUCGUACCAAAAAAAUGUGUUUGAACUAUAUUGUAUGUAAUUUGGAAGUCGUGUUAAUAAAACCCUGCAGUUUC,1.73
CUUGCUUCCAUAUUGGAGCUCCUCAGUAGGAACAGCUGUGGCACUGGGCUGGGGACCAGGAAGAAGUCACAAGUGGUGGGAGUAUCCUAGGGACAUGAGUCGUGCCCAGG,0.79
CAGAGCCUUGGUUUAUCCUGUACCUGUCAUUUCUGUUUGCAACUGGUUGCUGUAGCAACAAGAGUGUUUGGUAGCUGACCAAGGUGUCAGGAUCCCUGACCCUAGCGAUA,0.439

# Series 5
# Target: ABI1, truncated, D143A, DHFR fusion (Arabidopsis thaliana)
# Method: DHFR PCA, deep sequencing
# Medium: yeast
# Setting: methotrexate growth selection, single substitutions
# With: (+)-ABA 0 µM
# Relative to: wild-type fitted maximum
# Reading: higher = stronger binding
# Parent: PYL1, truncated, DHFR fusion (Arabidopsis thaliana); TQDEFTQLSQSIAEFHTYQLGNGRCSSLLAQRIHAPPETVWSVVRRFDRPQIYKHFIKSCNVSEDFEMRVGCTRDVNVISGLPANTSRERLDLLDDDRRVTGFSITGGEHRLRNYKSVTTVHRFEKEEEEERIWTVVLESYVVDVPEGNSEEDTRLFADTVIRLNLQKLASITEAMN
Variant,relative binding score
V118C,12%
T86E,-1.8%
A84P,31.4%
M68N,3.04%
T120R,-6.2%
L91M,2.37%
T135G,-14.9%
S63P,40.1%
E139Y,-6.36%
L20F,5.57%
Q2W,58.4%
P83N,12.4%
D159G,-3.86%
P36S,22.1%
E129L,12.7%
H55R,12.5%
Y53L,-0.359%
L156D,-0.776%
P36F,2.14%

# Series 6
# Target: Histone acetyltransferase KAT6A, winged helix 2, GST fusion (KAT6A, Homo sapiens, UniProt Q92794, residues 85-181)
# Method: protein binding microarray
# Form: double-stranded DNA, one strand shown
# Medium: in vitro
# Concentration: not given
# Setting: 8-mer, flanks averaged, mean of 2 arrays, mostly near background
# Relative to: not given
# Reading: higher = stronger binding
# Construct (chain): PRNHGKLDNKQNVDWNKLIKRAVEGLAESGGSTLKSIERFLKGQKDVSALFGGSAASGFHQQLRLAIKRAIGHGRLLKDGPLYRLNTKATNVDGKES
Strand,E-score
GATATAAA,-0.0414
CATAATCA,-0.0618
AGGATTGG,-0.0642
ATATGCGG,0.0461
CGCGGCGA,0.238
ACCTAAGC,-0.183
CCGGAAAC,0.154
ATAGATAT,-0.151
AGTCTTAA,-0.252
AGATGCGA,-0.102
CAGCCAAA,0.127
CATGGGAA,0.038
ATCTTCGC,0.0292
AAAGGATT,-0.0691
CGCGTATC,-0.0979
GGGGCGAC,0.0772
AAGGCTGG,-0.0167
TAGGTAGA,-0.0675
CTGATTCA,0.0239

# Series 7
# Target: CCNE2, cyclin fold, Cln2 fusion (human)
# Method: yeast growth competition, sequencing
# Medium: yeast
# Setting: weak parent motif
# Relative to: not given
# Reading: higher = stronger binding
# Parent: WEE1 docking peptide (human); CTLRQKLIFSPCS; partner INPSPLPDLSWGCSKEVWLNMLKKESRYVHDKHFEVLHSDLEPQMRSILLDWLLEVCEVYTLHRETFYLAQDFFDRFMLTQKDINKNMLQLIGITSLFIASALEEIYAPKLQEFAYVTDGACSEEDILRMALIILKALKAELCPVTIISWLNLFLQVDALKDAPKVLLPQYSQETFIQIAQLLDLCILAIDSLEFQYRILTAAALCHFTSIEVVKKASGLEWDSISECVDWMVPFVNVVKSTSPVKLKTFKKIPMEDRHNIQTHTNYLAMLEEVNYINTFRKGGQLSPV
Variant,normalised enrichment score
ATLRQKLIFSPCS [C1A],0.329
CTLRQKLIFSPCA [S13A],0.528
CTLRQKAIFSPCS [L7A],0.374
CTLAQKLIFSPCS [R4A],0.197
CTLRQKLIFSACS [P11A],0.507
CTLRQKLIASPCS [F9A],0.124
CTARQKLIFSPCS [L3A],0.771

# Series 8
# Target: CRIPT, C-terminal peptide
# Method: DHFR complementation, deep sequencing
# Medium: yeast
# Setting: single substitutions, model-inferred values
# Relative to: wild type
# Reading: higher = weaker binding
# Parent: ERBIN, PDZ domain 1 (human); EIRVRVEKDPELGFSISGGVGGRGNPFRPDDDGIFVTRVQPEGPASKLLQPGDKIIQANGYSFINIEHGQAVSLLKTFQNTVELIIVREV; partner TKNYKQTSV
Variant,binding free energy change [kcal/mol]
D31I,1.11
L12F,-0.0944
N80W,0.23
I55Y,1.14
I66A,0.196
Q40T,0.265
V39A,0.791
G33M,1.15
E42Y,0.24
Q57V,0.03
R5M,0.000208
F35R,1.13
P29A,-0.0255
T77W,0.111
L48P,0.644
E83M,0.182
I2S,0.258
I64M,0.0475
S17P,0.734
Q57D,-0.00167
G60S,0.0855
Q57R,-0.0601
I55W,1.39
V4M,0.0863
G69C,0.0578
